Experimental data of several laboratories.
A part holds a random share of what one study measured.

Block 1
Target: Histone acetyltransferase KAT6A, winged helix 1, GST fusion (KAT6A, Homo sapiens, UniProt Q92794, residues 1-85)
Method: protein binding microarray
Molecule type: double-stranded DNA, one strand shown
Medium: in vitro
Concentration: not given
Setting: 8-mer, flanks averaged, mean of 2 arrays, mostly near background
Relative to: not given
Direction: higher = stronger binding
Quantity: E-score
Residues (chain): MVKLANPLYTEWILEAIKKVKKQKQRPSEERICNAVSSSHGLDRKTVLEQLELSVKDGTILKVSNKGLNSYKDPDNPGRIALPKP
AATGCGTC: 0.164
ACTCGCAA: -0.131
ACCGATAC: 0.149
TCTGGTAA: -0.118
ATTGGCTA: -0.174
ATCAGATG: -0.134
CACCATCC: -0.155
GGGCAAAA: 0.0401
TCTTTCAA: -0.182
CAGATACG: 0.14
CGCTAACA: 0.052
AGCGGCAC: 0.368
CTAATGAC: -0.201
CATATAGA: 0.022
AGACACGA: -0.032
CACAGACA: -0.239
ACAAACCT: -0.151
CGATGAAC: -0.0101
CAGCTCCC: -0.18
AGGTTACC: 0.0481
ATGATTAG: 0.0196
AAATATTG: -0.0299
ACCTTATC: 0.00508

Block 2
Target: Fragile X messenger ribonucleoprotein 1, C-terminal low-complexity region (Fmr1, Mus musculus, UniProt P35922)
Method: RNA Bind-n-Seq
Molecule type: RNA
Medium: in vitro
Concentration: 200 nM
Setting: whole 134-nt RNA, ends assumed
Added: 150 mM LiCl
Relative to: input library
Direction: higher = stronger binding
Quantity: log2 enrichment
Each molecule: 7-deaza-guanosine replaces G
Constant ends, left off below: GGGAGUUCUACAGUCCGACGAUC … UGGAAUUCUCGGGUGUCAAGG
ACCAUGCAGGUGGGCAUCUUUGGGAAGUGGGGCAAGGGGGGGAUAGGGAGGGGGGUAACACUUUAGGAACAGGUGGUCCCAGGUCGUUUC: 1.4
CUCAAGUCCUGUGCUACACAUCGUAUGUACCGAAUCGGAAAGGGAAAGGAAAGGAAAGUAUUAUGUUACGCCGUUCGGAUCUGCACUUCC: -0.216
UCCUCAAGUCCUGUGCUACACAUCGUAUGUACCGAAUCGGAGGAGGUUUGGAAAGUAUUAUGUUACGCCGUUCGGAUCUGCACUUCCAGC: -2.63
AGUCCUGUGCUACACAUCGUAUGUACCGAAUCGGGGUGGGGUUUUUGGGGAAAGGGGAAAGUAUUAUGUUACGCCGUUCGGAUCUGCACU: -0.406
UGGACAUGGAUUUUCAAGCCUACUUAGCUUCCUCUAGUGAAGAUGAAGAGGAGAUAGAAGAGGAGCUACAAGGUAUUGUUAAUCUUUCAG: -2.78
UGUGCUACACAUCGUAUGUACCGAAUCGGGGUUUUUUUGGUUUUUUUGGGGUUUUUUUGGGGAAAGUAUUAUGUUACGCCGUUCGGAUCU: 1.33
CACAGACAACACGCACCCACACAGACACAGAGGGAAGGGGUUGGGAUGGGGAUAGGGUGCACAGCAGGGCGGGGUAGGACCCCAGCCCCU: -0.0458
CUCAAGUCCUGUGCUACACAUCGUAUGUACCGAAUCGGGAAGGAAGGGAAGGGAAAGUAUUAUGUUACGCCGUUCGGAUCUGCACUUCCA: -0.448

Block 3
Target: RING finger protein unkempt homolog, zinc fingers 1-6, GST-SBP tag (UNK, Homo sapiens, UniProt Q9C0B0, residues 30-357)
Method: RNA Bind-n-Seq
Molecule type: RNA
Medium: in vitro
Concentration: not given
Setting: RNA with constant flanks, human and mouse sites, ends assumed
Relative to: input RNA pool
Direction: higher = stronger binding
Quantity: bound/input enrichment
Constant ends, left off below: GGGAGUUCUACAGUCCGACGAUC … CAACAGAGGAUUGAGCAUCA
Construct (chain): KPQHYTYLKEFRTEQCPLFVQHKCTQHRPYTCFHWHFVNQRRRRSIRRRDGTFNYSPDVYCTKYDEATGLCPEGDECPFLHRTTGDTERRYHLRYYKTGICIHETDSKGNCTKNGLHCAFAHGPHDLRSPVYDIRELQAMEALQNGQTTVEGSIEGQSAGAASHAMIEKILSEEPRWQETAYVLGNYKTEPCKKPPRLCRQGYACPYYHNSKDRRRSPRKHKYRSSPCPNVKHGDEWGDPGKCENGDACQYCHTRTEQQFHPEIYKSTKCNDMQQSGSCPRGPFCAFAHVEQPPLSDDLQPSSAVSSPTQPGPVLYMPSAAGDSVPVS
ACUUUAAACCAUUUGACUUUCGCUCCAAAGUUAUGUUGGUAGUAUAGCAAAUUAUGAUGAAUAGCUUUAAUUGUAUGUUUAAAAGUCUCAUAUGUUCACAUGCUUAAAUCUGGGUAUCAG: 6.75 ratio
CCACAUGAUGUAGAAAUAAAUAAAAUCAUACCUACGAGUGCAUCCAAGACAGAAGCACCGGCAGCCGCAAAGUCCCUGACAUCGCCCCUCGAUGACACAGAAGUAAAGAAGGUGAUGGAA: 0.882 ratio
GAUGAGCUCGCCCGGCUGCCCUACCUACGGACCUGGUUCCGCACCCGCAGCGCCAUCAUCCUGCACCUCAGCAACGGCAGCGUGCAGAUCAACUUCUUCCAGGAUCACACCAAGCUCAUC: 0.103 ratio
AAAACCUGGUAUGGAGUCCCAGGGUAUGCUGCUGAGCAGCUAGAAAAUGUAAUGAAGAAACUAGCUCCAGAACUCUUUGUGUCCCAGCCGGAUCUCCUCCAUCAGCUUGUGACCAUCAUG: 0.392 ratio
GAAGCAGCAGCACUGCUAGAAAGUGGCAGUUCAGUGGGAGACGAGACCGAUCUUGCUAAUUUAGGUGAUGUGGCUUCUGAUGGGAAAAAGGAACCAUCAGAUAAAGCUGUGAAAAAAGAU: 0.317 ratio
AGAGCAAUGGCUGCAGCAGCAGCUUCUCACCUGAACCUGGAUGCCCUCCGGGAAGUGCUAGAAUGCCCCAUCUGCAUGGAGUCCUUCACAGAAGAGCAGCUGCGUCCCAAGCUUCUGCAC: 0.067 ratio
CCAGGGGACAACAAACUGAAGACUAAAAUGUAUCUGGCUCUCCAAUCCUUAGAACAGGACCUUUCUAAAAUGGCUAUUAUGUACUGGAAGGCAACCAACGCCGCUCCCUUGGAUAAGAUU: 0.294 ratio
UAAGAUCACCUCGCGUCCCGAACCGCCGCCUCCAACUCUUGAGAACUCAAACGCCCGACAAGAAACUUGCACGAUCGCGCCCGCGGCCACCAACCCGAGCCAGAGCACCCACGGCCUGCA: 0.248 ratio

Block 4
Target: Centromere-binding protein 1, full length, N-terminal tag (CBF1, Saccharomyces cerevisiae, UniProt P17106, residues 1-351)
UniProt P17106, sequence (whole entry, looked up): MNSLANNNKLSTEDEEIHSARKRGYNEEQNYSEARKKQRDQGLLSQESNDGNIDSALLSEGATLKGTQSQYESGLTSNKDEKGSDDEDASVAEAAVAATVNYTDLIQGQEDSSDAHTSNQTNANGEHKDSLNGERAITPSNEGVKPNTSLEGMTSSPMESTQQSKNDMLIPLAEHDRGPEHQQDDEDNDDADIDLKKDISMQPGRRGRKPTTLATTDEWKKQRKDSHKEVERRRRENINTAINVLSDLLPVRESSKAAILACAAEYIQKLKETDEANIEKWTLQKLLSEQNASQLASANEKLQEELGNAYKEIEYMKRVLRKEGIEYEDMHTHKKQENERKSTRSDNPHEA
Method: protein-binding microarray
Molecule type: double-stranded DNA, one strand shown
Medium: in vitro
Concentration: 0.8 µM
Setting: whole 60-bp probe, no competitor
Direction: higher = stronger binding
Quantity: fluorescence intensity
Constant ends, left off below: … GTCTTGATTCGCTTGACGCTGCTG
CTAAATTCATTATGTCTGATGAATATGAAAACCTTC: 538 a.u.
CTATGTTGGTAACGGCACATGATATGCCAATATTTC: 1240 a.u.
GAACATAACCTATGTCACCATCTAACACCGTATTAG: 538 a.u.
CTACCGTGGAAAGAGCACGTGCCTCGCTGGATCTTC: 13400 a.u.
CTAAACCGTGAAGGTCACGGCATATATACTCTGTTC: 696 a.u.
GAACAAACACCCTTCCACGGGAAGCGCCAGCCGTAG: 491 a.u.
GAACTAACAACTGAGCACGTAACCAATGGAAAATAG: 586 a.u.
CTAATTTTTTGTAGTGTGATGTTGACATGGTTATTC: 681 a.u.
CTATTCCCCCATGCACTGATGGCGCTTGTATATTTC: 521 a.u.
CTAACTTCAACACGCCACCTGGTCTTGGGGTAATTC: 787 a.u.
CCTAACTACTATAGTCATCATATATAGCTTCGTACA: 516 a.u.
CCTAACTACTATATATGCGTGCAATAGCTTCGTACA: 539 a.u.
GAAAAAGCAAAAGTGTTGGTGATGAAGAAGAAATAG: 570 a.u.
GAACAAATATATGATCACGTGCGATTGTGTAAATAG: 17800 a.u.
CTAAATTTCGCTAAACACGGGGTTTAAGTTTAATTC: 768 a.u.
CCTAACTACTATATGCACCTGCAATAGCTTCGTACA: 538 a.u.
CTAAAATAGACAATCAACGTGATGGGGTTTAAATTC: 1000 a.u.
GAATGTGTATGTAAGCACGAGCACTAGTTCAATTAG: 649 a.u.
GAAGTAATCTATCGTGGTCATTTCTTGTTCTCATAG: 517 a.u.

For quick reference, copied from above (block 1):
ACCGATAC: 0.149
AATGCGTC: 0.164
CAGATACG: 0.14
TCTTTCAA: -0.182
